# Experimental data from different studies.
# “And” joins repeats or separate records; there may be more than shown. Numbers after ± are the reported error.
# UCHL1: Ubiquitin carboxyl-terminal hydrolase isozyme L1 (UCHL1, Homo sapiens, UniProt P09936)
# Chain of UniProt P09936 (whole entry, looked up): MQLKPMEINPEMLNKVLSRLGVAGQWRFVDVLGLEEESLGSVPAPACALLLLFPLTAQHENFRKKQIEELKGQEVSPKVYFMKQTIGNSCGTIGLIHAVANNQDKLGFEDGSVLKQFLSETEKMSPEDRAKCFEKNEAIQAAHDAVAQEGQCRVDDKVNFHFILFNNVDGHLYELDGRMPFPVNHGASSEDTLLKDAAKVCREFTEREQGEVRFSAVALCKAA
Compound,target or system,assay,test system,setting,scale,endpoint,result
CC(C)NCC(O)c1ccc(O)c(O)c1 (centres unmarked),,,"ventricular cardiomyocytes, C57BL/6 mouse","dose not given, 0.548 s",,sarcomere length,1.5 µm
CC(=O)[C@]1(O)Cc2c(O)c3c(c(O)c2[C@@H](O[C@H]2C[C@H](N)[C@H](O)[C@H](C)O2)C1)C(=O)c1ccccc1C3=O,Toxoplasma gondii,"parasite growth, luciferase reporter","HFF host cells, tachyzoites",72 h,,EC50,0.19 µM
NC(=O)c1cnc2[nH]ccc2c1N[C@@H]1[C@@H]2CC3C[C@H]1C[C@@](O)(C3)C2,,"CD4+ naive T cells, flow cytometry","Japanese humans, peripheral blood",60 mg single dose,reference: baseline,percent change,-1.33%
O=C(O)CNC(=O)Cc1ccccc1,,,"ventricular cardiomyocytes, C57BL/6 mouse","dose not given, 0.22 s",,sarcomere length,1.63 µm
OC[C@H]1O[C@@H]2O[C@H]3[C@H](O)[C@@H](O)[C@@H](O[C@H]4[C@H](O)[C@@H](O)[C@@H](O[C@H]5[C@H](O)[C@@H](O)[C@@H](O[C@H]6[C@H](O)[C@@H](O)[C@@H](O[C@H]7[C@H](O)[C@@H](O)[C@@H](O[C@H]8[C@H](O)[C@@H](O)[C@@H](O[C@H]1[C@H](O)[C@H]2O)O[C@@H]8CO)O[C@@H]7CO)O[C@@H]6CO)O[C@@H]5CO)O[C@@H]4CO)O[C@@H]3CO,LuxR,Escherichia coli sensor,,20 µM,higher = stronger induction,bioluminescence induction,881 ± 6 RLU
O=C(C#Cc1ccc(F)c(F)c1)c1ccccc1,Pseudomonas aeruginosa,static biofilm,PA14,"10 µM, 24 h, static",reference: DMSO,biofilm formation,77%
CC(C)C[C@H](NC(=O)C[C@H](O)[C@H](CC(C)C)NC(=O)[C@H](Cc1c[nH]cn1)NC(=O)CNC(=O)[C@@H](NC(=O)[C@H](C)NC(=O)[C@H](Cc1c[nH]c2ccccc12)NC(=O)[C@H](CCC(N)=O)NC(=O)[C@@H](Cc1ccccc1)NC(=O)COCCOCCNC(=O)CCC(C(=O)O)N1CCN(CC(=O)O)CCN(CC(=O)O)CCN(CC(=O)O)CC1)C(C)C)C(N)=O (some centres unmarked) [lutetium-177 labelled],,,"BALB/c nu/nu mice, large intestine","100 pmol, 1 h, with: PA 300 µg",,tissue uptake,1.2 ± 0.4 %ID/g
COc1cccc(C(=O)C#Cc2ccc(O)c(OC)c2)c1,Pseudomonas aeruginosa,"RT-qPCR, measured: lasB",biofilm cells,"10 µM, 24 h",reference: untreated,mRNA level,29%
CCn1cc(-c2cc(Cn3ccnc3)cc3c2CCN([C@H](c2cc(OC)ccn2)C2CC2)C3=O)c(C(F)(F)F)n1,SNU1079,cell growth,,120 h,,EC50,> 30 µM
Oc1ccccc1-c1n[nH]cc1-c1ccnc2ccccc12,VPS15 (Candida albicans),"kinase binding, MIB/MS competition",Candida albicans lysate,1 µM,reference: DMSO,log2 fold change,0.13
CCCCC[C@H](O)CC(=O)CCc1ccc(O)c(OC)c1,Pseudomonas aeruginosa,static biofilm,PA14,"10 µM, 24 h, static",reference: DMSO,biofilm formation,83%
Cn1cc(-n2cnc3c(NCc4nc5cc(Cl)c(Cl)cc5[nH]4)nc(N4CCOCC4)nc32)cn1,MDA-MB-468,"cell viability, CellCounting-Lite",,"222.2 nM, 37 °C",higher = more viable cells,luminescence signal,31300 a.u. and 41400 a.u. and 33700 a.u.
O=C(C#Cc1ccc(F)c(F)c1)c1ccccc1Cl,Pseudomonas aeruginosa,static biofilm,PA14,"10 µM, 24 h, static",reference: DMSO,biofilm formation,50%
CCn1cc(-c2cc(Cn3ccoc3=N)cc3c2CCN([C@@H](C)c2cc(OC)ccn2)C3=O)c(C(F)(F)F)n1,SK-LU-1,"cell growth, inhibitor",,120 h,,EC50,> 30 µM
Cc1ccc(C(=O)C#Cc2ccc(F)c(F)c2)cc1,Pseudomonas aeruginosa,static biofilm,PA14,"10 µM, 24 h",reference: DMSO,biofilm formation,53%
C[C@H](Oc1ccc(Br)cc1-c1ccon1)C(=O)O,,muscle velocity recovery cycles,"human, tibialis anterior muscle","400 mg twice daily, multiple doses, frequency ramp, first response at 15 Hz",reference: placebo,latency change,0.505%
C[C@H]1C[C@H]2CSC(N)=N[C@@]2(c2nc(NC(=O)c3ccc(OC(F)F)cn3)cs2)CO1,,measured: Aβx-40,"healthy adults, plasma","125 mg once daily, day 10",reference: placebo,percent change from baseline,-70.8%
C[n+]1cc2c3c(ccc2c2ccc4cc5c(cc4c21)OCO5)OCO3,Toxoplasma gondii,parasite growth,"HFF, bradyzoite, alkaline-induced",,,EC90,1.6 µM
O=C(/C=C/C=C/C=C/C1CCCCC1)NC1=C[C@@](O)(/C=C/C=C/C=C/C(=O)NC2=C(O)CCC2=O)[C@@H]2O[C@@H]2C1=O,Fu97,"cell growth, CellTiter-Glo",,78 h,,GI50,28.6 µM
CCN(CC)CCCCCCNc1cc(OC)cc2c(C)ccnc12,Trypanosoma cruzi,"reporter translation, Renilla luciferase mRNA translation",cell-free extract,40 µM,reference: DMSO,inhibition,-4.5%
O=C(Nc1ccncc1)c1cc([N+](=O)[O-])ccc1Cl,Toxoplasma gondii,parasite growth,"HFF, bradyzoite, glutamine-induced",,,EC50,0.634 µM
O=C(C#Cc1ccc(F)c(F)c1)c1cccc(Cl)c1,Pseudomonas aeruginosa,"RT-qPCR, measured: rhlA",biofilm cells,"10 µM, 24 h",reference: untreated,mRNA level,51%
C=CC(=O)Nc1cc(SCc2ccccc2C)ncn1,UCHL1,"covalent, intact protein LC-MS",,12.5 µM,,labelling,18.6%
CC(C)[C@H](NC(=O)[C@H](Cc1ccc(O)cc1)NC(=O)[C@H](Cc1ccc(O)cc1)NC(=O)[C@@H]1CCCN1C(=O)[C@H](CCC(=O)O)NC(=O)[C@H](CCC(=O)O)NC(=O)[C@H](Cc1c[nH]c2ccccc12)NC(=O)[C@@H]1CCCN1C(=O)[C@@H](NC(=O)[C@H](CCC(N)=O)NC(=O)c1ccc2c(c1)C(=O)OC21c2ccc(O)cc2Oc2cc(O)ccc21)C(C)C)C(=O)N[C@H](C(=O)N[C@@H](CCCCN)C(=O)N[C@@H](CCCCN)C(=O)N[C@@H](CO)C(=O)N[C@@H](CO)C(=O)NCC(=O)NCC(N)=O)C(C)C,,,"human, plasma","intravenous infusion, 400 mg, 0.08333 h after infusion start",,plasma concentration,215 ng/mL and 1760 ng/mL
c1coc(-c2n[nH]cc2-c2ccnc3ccccc23)c1,CMK1 (Candida albicans),"kinase binding, MIB/MS competition",Candida albicans lysate,10 µM,reference: DMSO,log2 fold change,-0.14
COc1cc(C#CC(=O)c2ccccc2C)ccc1O,Pseudomonas aeruginosa,static biofilm,PA14,"10 µM, 24 h",reference: DMSO,biofilm formation,75%
O=C1C(O)=C([C@H]2CC[C@H](c3ccc(Cl)cc3)CC2)C(=O)c2ccccc21,Toxoplasma gondii,bradyzoite growth,,"glutamine-induced bradyzoites, glucose-free medium",,EC50,0.06 µM
Nc1cccc2c1C(=O)N(C1CCC(=O)NC1=O)C2=O (centres unmarked),RPMI-8226,"flow cytometry, measured: CD32",,concentration not given,reference: comparator compound alone,surface marker level,262%
Oc1ncnc2[nH]ncc12,Toxoplasma gondii,parasite growth,"HFF, bradyzoite, alkaline-induced",,,EC90,30 µM
COc1cc(C#CC(=O)c2ccccc2OC)ccc1O,Pseudomonas aeruginosa,static biofilm,PA14,"10 µM, 24 h, static",reference: DMSO,biofilm formation,70%
O=C(CCl)NC1CCN(C(=O)c2ccco2)c2ccccc21 (centres unmarked),UCHL1,"covalent, intact protein LC-MS",,12.5 µM,,labelling,26.8%
S=C(S)N1CCCC1,Toxoplasma gondii,"parasite growth, luciferase reporter","HFF, tachyzoite",72 h,,EC90,4.5 µM
COc1cnc2cccc(N3CCc4c(cc(Cn5ccnc5C)cc4-c4cn(C)nc4C(F)(F)F)C3=O)c2c1,GCIY,"cell growth, inhibitor",,120 h,,EC50,1.41 µM
CN(C)CCCCCN(C)Cc1cc2ccccc2o1.Cl,Trypanosoma cruzi,"reporter translation, Renilla luciferase mRNA translation",cell-free extract,40 µM,reference: DMSO,inhibition,-6.1%
CC(C)(C)c1ccc(S(=O)(=O)/C=C/C#N)cc1,Toxoplasma gondii,parasite growth,"HFF, bradyzoite, glutamine-induced",,,EC50,6.19 µM
Cn1cc(-c2ccc(-c3cncc(Cl)c3N3CCC4(CCNC4=O)CC3)cc2)cn1,COLO 205,"gene expression, microarray, measured: AURKA mRNA",,"concentration not given, 2 h",reference: untreated cells,log2 fold change,-1.91
COC(=O)C1=C(C)NC(C)=C(C(=O)OC(C)(C)CN(C)CCC(c2ccccc2)c2ccccc2)C1c1cccc([N+](=O)[O-])c1 (centres unmarked),Toxoplasma gondii,parasite growth,"HFF, bradyzoite, alkaline-induced",,,EC50,7.8 µM
OC(CCN1CCCCC1)(c1ccccc1)C1CC2C=CC1C2 (centres unmarked),,resting-state EEG,healthy elderly humans,"oral, 2 mg, eyes closed, LS mean",,EEG Alpha2-power Pz-O2,4.6 µV²

# For quick reference, copied from above:
Compound,target or system,assay,test system,setting,scale,endpoint,result
Cc1ccc(C(=O)C#Cc2ccc(F)c(F)c2)cc1,Pseudomonas aeruginosa,static biofilm,PA14,"10 µM, 24 h",reference: DMSO,biofilm formation,53%
C[C@H](Oc1ccc(Br)cc1-c1ccon1)C(=O)O,,muscle velocity recovery cycles,"human, tibialis anterior muscle","400 mg twice daily, multiple doses, frequency ramp, first response at 15 Hz",reference: placebo,latency change,0.505%
C[C@H]1C[C@H]2CSC(N)=N[C@@]2(c2nc(NC(=O)c3ccc(OC(F)F)cn3)cs2)CO1,,measured: Aβx-40,"healthy adults, plasma","125 mg once daily, day 10",reference: placebo,percent change from baseline,-70.8%
